Measured values from different studies.
“And” joins repeats or separate records; there may be more than shown. ± gives the spread as reported.

CSCC[C@H](NC(=O)CNC(=O)[C@H](CCCCN)NC(=O)[C@H](CC(C)C)NC(=O)[C@@H]1CCCN1C(=O)[C@H](CO)NC(=O)[C@H](Cc1c[nH]cn1)NC(=O)[C@H](Cc1c[nH]c2ccccc12)NC(=O)[C@H](CCCNC(=N)N)NC(=O)[C@H](CC(C)C)NC(=O)[C@H](CCCNC(=N)N)NC(=O)[C@H](Cc1c[nH]c2ccccc12)NC(=O)[C@H](CS)NC(=O)CCCCCNC(=O)CN1CCN(CC(=O)O)CCN(CC(=O)O)CCN(CC(=O)O)CC1)C(=O)O [copper-64 labelled] — tissue uptake (BALB/c nude mouse, Huh-7 tumour, small intestine; intravenous, 2 h, ex vivo biodistribution): 5.12 %ID/g
CC[C@H](C)[C@H](NC(=O)[C@H](CCCCN)NC(=O)CNC(=O)[C@H](CC(C)C)NC(=O)[C@H](Cc1ccccc1)NC(=O)[C@H](CCCCN)NC(=O)[C@H](CO)NC(=O)[C@H](Cc1ccccc1)NC(=O)[C@H](Cc1c[nH]c2ccccc12)NC(=O)[C@H](CCC(N)=O)NC(=O)[C@@H](NC(=O)[C@H](Cc1ccccc1)NC(=O)CCCCCNC(=O)CN1CCN(CC(=O)O)CCN(CC(=O)O)CCN(CC(=O)O)CC1)C(C)C)C(=O)N[C@@H](CCC(=O)O)C(=O)N1CCC[C@H]1C(=O)N[C@@H](CC(=O)O)C(=O)N[C@H](C(=O)N[C@@H](CO)C(=O)N[C@@H](CCC(N)=O)C(=O)N[C@H](C(=O)N[C@@H](CCC(N)=O)C(=O)N[C@@H](CC(=O)O)C(=O)N1CCC[C@H]1C(=O)N[C@@H](CC(N)=O)C(=O)N[C@@H](CC(=O)O)C(=O)N[C@@H](CCC(N)=O)C(=O)N[C@@H](Cc1ccc(O)cc1)C(=O)N[C@@H](CCC(=O)O)C(=O)N1CCC[C@H]1C(=O)N[C@@H](Cc1ccccc1)C(=O)O)C(C)C)C(C)C [copper-64 labelled] — tissue uptake (C57BL/6 mice, large intestine; together with: LPS 0.1 mg/kg intratracheal): 2.81 ± 0.2 %ID/g
CC[C@H](C)[C@H](NC(=O)[C@H](CCCNC(=N)N)NC(=O)[C@H](CCCCN)NC(=O)[C@H](Cc1ccc(O)cc1)NC(=O)[C@H](CC(=O)O)NC(=O)[C@H](C)NC(=O)CNC(=O)CCOCCOCCOCCNC(=O)CN1CCN(CC(=O)O)CCN(CC(=O)O)CCN(CC(=O)O)CC1)C(=O)N[C@H](C(=O)N[C@H](C(=O)N[C@@H](CCCCN)C(=O)N[C@H](C(=O)N[C@@H](CC(N)=O)C(N)=O)C(C)C)C(C)C)[C@@H](C)O [copper-64 labelled] — tissue uptake (ex vivo gamma counting; C57BL/6J male mice, B16-F10 tumour, lung; intravenous, 1.85 MBq, 20 min): 2.39 ± 0.286 %ID/g
O=C1NC2(CC2)COc2ncc(F)cc2[C@H]2COCCN2c2ccn3ncc1c3n2 — organ-to-body weight ratio (Sprague-Dawley rat, male, adrenals; oral, 10 mg/kg/day, 4 weeks, end of treatment): 0.017 ± 0.003%
CCCC[C@H]1C(=O)N(C)[C@@H](CCCC)C(=O)N[C@@H](CCCNC(=O)CN2CCN(CC(=O)O)CCN(CC(=O)O)CCN(CC(=O)O)CC2)C(=O)N[C@H](C(=O)NCC(N)=O)CSCC(=O)N[C@@H](Cc2ccc(O)cc2)C(=O)N(C)[C@@H](C)C(=O)N[C@@H](CC(N)=O)C(=O)N2CCC[C@H]2C(=O)N[C@@H](Cc2c[nH]cn2)C(=O)N[C@@H](CC(C)C)C(=O)N(C)CC(=O)N[C@@H](Cc2c[nH]c3ccccc23)C(=O)N[C@@H](CO)C(=O)N[C@@H](Cc2c[nH]c3ccccc23)C(=O)N1C [gallium-68 labelled] — tissue uptake (NOD/SCID mice with CHO-hPD-L1 xenograft, bone; 10 min post injection): 2.06 ± 0.28 %ID/g
Cc1ccc(N2CCN(C)CC2)cc1C(=O)N[C@H](C)c1cc(-c2cnn(C)c2)nc2ccccc12 — viability (African green monkey cells; 62.5 µM): 72.9%
CN1Cc2cc(Cl)ccc2-n2c(nnc2C2CCN(c3cccc([18F])n3)CC2)C1 — tissue uptake (C57BL/6 mouse male, brain; intravenous, 3.7 MBq, 15 min): 0.49 ± 0.1 %ID/g
Cc1ccc(O[C@H]2CCN(C)C2)cc1C(=O)N[C@H](C)c1cc(-c2cnn(C)c2)nc2ccccc12 — viability (Vero E6; 7.812 µM): 94.5% and 98.9% and 96.2%
CC(C)C[C@@H](NC(=O)[C@@H](CCCNC(=N)N)NC(=O)[C@@H](Cc1c[nH]cn1)NC(=O)[C@@H](Cc1c[nH]c2ccccc12)NC(=O)[C@@H](Cc1c[nH]cn1)NC(=O)[C@@H](Cc1ccccc1)NC(=O)[C@H](NC(=O)[C@@H](Cc1ccc(O)cc1)NC(=O)CNC(=O)CNC(=O)CCOCCOCCOCCNC(=O)CN1CCN(CC(=O)O)CCN(CC(=O)O)CC1)[C@H](C)O)C(=O)N[C@H](CC(N)=O)C(=O)N1CCC[C@@H]1C(=O)O [gallium-68 labelled] — tissue uptake (gamma counting; C57BL/6 mice, male, heart; intravenous, 1.85 MBq, 120 min): 0.67 ± 0.12 %ID/g
C[C@H](O)[C@@H](NC(=O)[C@H]1CCCN1C(=O)[C@@H](CCCCN)NC(=O)[C@@H](CO)NC(=O)[C@@H](Cc1ccc(O)cc1)NC(=O)[C@@H](CC(N)=O)NC(=O)CCOCCOCCOCCNC(=O)CN1CCN(CC(=O)O)CCN(CC(=O)O)CCN(CC(=O)O)CC1)C(=O)N[C@H](CC(=O)O)C(=O)N[C@H](CCCNC(=N)N)C(=O)N[C@H](CCC(N)=O)C(=O)N[C@H](Cc1ccc(O)cc1)C(=O)N[C@H](Cc1c[nH]cn1)C(=O)N[C@H](Cc1ccccc1)C(N)=O [copper-64 labelled] — tissue uptake (C57BL/6J mice, heart; intravenous, 1.85 MBq, 0.3333 h, radiolabelled): 0.81 ± 0.15 %ID/g
CC[C@H](C)[C@H](NC(=O)[C@H](CCCNC(=N)N)NC(=O)[C@H](CCCCN)NC(=O)[C@H](Cc1ccc(O)cc1)NC(=O)[C@H](CC(=O)O)NC(=O)[C@H](C)NC(=O)CNC(=O)CCOCCOCCOCCNC(=O)CN1CCN(CC(=O)O)CCN(CC(=O)O)CCN(CC(=O)O)CC1)C(=O)N[C@H](C(=O)N[C@@H](CC(C)C)C(=O)N[C@@H](CCCCN)C(=O)N[C@H](C(=O)N[C@@H](CC(N)=O)C(N)=O)C(C)C)[C@@H](C)O [copper-64 labelled] — tissue uptake (ex vivo gamma counting; C57BL/6J male mice, B16-F10 tumour, thymus; intravenous, 1.85 MBq, 100 min): 0.496 ± 0.132 %ID/g

For quick reference, copied from above:
CC[C@H](C)[C@H](NC(=O)[C@H](CCCCN)NC(=O)CNC(=O)[C@H](CC(C)C)NC(=O)[C@H](Cc1ccccc1)NC(=O)[C@H](CCCCN)NC(=O)[C@H](CO)NC(=O)[C@H](Cc1ccccc1)NC(=O)[C@H](Cc1c[nH]c2ccccc12)NC(=O)[C@H](CCC(N)=O)NC(=O)[C@@H](NC(=O)[C@H](Cc1ccccc1)NC(=O)CCCCCNC(=O)CN1CCN(CC(=O)O)CCN(CC(=O)O)CCN(CC(=O)O)CC1)C(C)C)C(=O)N[C@@H](CCC(=O)O)C(=O)N1CCC[C@H]1C(=O)N[C@@H](CC(=O)O)C(=O)N[C@H](C(=O)N[C@@H](CO)C(=O)N[C@@H](CCC(N)=O)C(=O)N[C@H](C(=O)N[C@@H](CCC(N)=O)C(=O)N[C@@H](CC(=O)O)C(=O)N1CCC[C@H]1C(=O)N[C@@H](CC(N)=O)C(=O)N[C@@H](CC(=O)O)C(=O)N[C@@H](CCC(N)=O)C(=O)N[C@@H](Cc1ccc(O)cc1)C(=O)N[C@@H](CCC(=O)O)C(=O)N1CCC[C@H]1C(=O)N[C@@H](Cc1ccccc1)C(=O)O)C(C)C)C(C)C [copper-64 labelled] — tissue uptake (C57BL/6 mice, large intestine; together with: LPS 0.1 mg/kg intratracheal): 2.81 ± 0.2 %ID/g
